Measured values pooled from the literature.
A part holds a random share of what one study measured. Positions count from the first letter of the parent shown.

Block 1 — technique: protein-binding microarray; form: double-stranded DNA, one strand shown; medium: in vitro; tested at: 250 nM; notes: 60-bp whole probe; together with: salmon DNA 0.4 mg/ml; baseline: random background probes; reading: higher = stronger binding; constant ends, left off below: GCCTAGCAC … GTCTTGATTCGCTTGACGCTGCTG
Target: Interferon regulatory factor 7, full length, phosphomimetic (IRF7, Homo sapiens, UniProt Q92985, residues 1-503, S101K/S471D/S472D/S475D/S476D/S477D/S483D/S484D/S487D)
Sequence of UniProt Q92985 (whole entry, unmodified, looked up): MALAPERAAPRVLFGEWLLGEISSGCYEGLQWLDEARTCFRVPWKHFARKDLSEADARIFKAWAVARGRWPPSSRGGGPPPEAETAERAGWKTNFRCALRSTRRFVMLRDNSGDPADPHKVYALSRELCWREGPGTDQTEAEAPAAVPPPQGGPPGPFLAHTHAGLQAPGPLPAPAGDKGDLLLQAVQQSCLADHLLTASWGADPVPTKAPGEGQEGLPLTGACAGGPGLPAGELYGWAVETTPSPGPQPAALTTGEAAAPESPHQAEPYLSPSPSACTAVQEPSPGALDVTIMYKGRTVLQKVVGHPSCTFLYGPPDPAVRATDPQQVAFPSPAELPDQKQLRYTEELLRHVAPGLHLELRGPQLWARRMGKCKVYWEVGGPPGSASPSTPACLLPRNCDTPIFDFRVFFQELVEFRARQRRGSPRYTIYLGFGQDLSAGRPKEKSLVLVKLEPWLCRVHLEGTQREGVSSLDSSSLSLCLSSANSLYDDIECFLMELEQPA
Sequence	log fluorescence
GCCCCACCCGCTCTGGCCCCGTGCTAG	0.734 z-score
CAGATGGAATTAAGAAGATGGTGCTAG	-0.0203 z-score
ATAGGTATCGACTATCGGTTAGTGCTA	0.326 z-score
TTAGGTATCGACTATCCGTTAGTGCTA	0.472 z-score
GACGGACTGGACTTTCGGAACGTGCTA	-0.245 z-score
TCAATTATGAGTCTTGAACTGTGCTAG	-0.0601 z-score
TCATAATTCACTATTACACTGTGCTAG	0.638 z-score
GCAGGGCTCTCTTCTGCTTCCGTGCTA	-0.752 z-score
TTAGATATTAGTATCGATTAGTGCTAG	1.21 z-score
GACCATTTCAGTTCCGAGACGTGCTAG	1.53 z-score
GACGGACTGCATCTCCTGACGTGCTAG	-0.874 z-score
GACGATATCGAGTTTCGAGACGTGCTA	3.18 z-score

Block 2 — technique: competition protein-binding microarray; form: double-stranded DNA, one strand shown; medium: in vitro; tested at: 2 µM; together with: Pho4 competitor, 0.05 µM; reading: higher = stronger binding
Target: Centromere-binding protein 1, full length, His-tagged (CBF1, Saccharomyces cerevisiae, UniProt P17106, residues 1-351)
Sequence of UniProt P17106 (whole entry, looked up): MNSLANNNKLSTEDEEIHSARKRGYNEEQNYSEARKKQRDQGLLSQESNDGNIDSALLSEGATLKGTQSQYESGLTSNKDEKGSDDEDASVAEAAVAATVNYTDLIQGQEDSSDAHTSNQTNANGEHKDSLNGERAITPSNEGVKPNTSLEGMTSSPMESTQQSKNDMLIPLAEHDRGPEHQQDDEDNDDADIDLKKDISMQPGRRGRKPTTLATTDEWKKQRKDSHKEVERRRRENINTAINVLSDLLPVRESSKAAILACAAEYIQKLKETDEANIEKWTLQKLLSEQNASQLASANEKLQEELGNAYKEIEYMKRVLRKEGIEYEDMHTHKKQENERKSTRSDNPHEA
Notes: whole 60-bp probe, lowest competitor level
Sequence	fluorescence intensity
CCTTCCGCCAAGGAGCACATGCGGCCCACTAAAACTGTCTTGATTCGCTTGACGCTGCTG	84.9 a.u.
TCCGCGAGTCATCTCGACATGACAATCTTTTGCTAGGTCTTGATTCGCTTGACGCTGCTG	82 a.u.
CCTTTGTCTGCTGTGTATGTGATATGGAAAACTAACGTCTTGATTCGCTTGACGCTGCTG	95.9 a.u.
ATGGCATCTTGCGGGAACGTGCAAAAAAGCTCAATGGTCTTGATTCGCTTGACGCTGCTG	96.4 a.u.
CATACCCAACCTTGTCACTGAACTTAAGATATTTGTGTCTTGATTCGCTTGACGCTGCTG	77.9 a.u.
TGCGCAACAACTTGCTCCGTGGGTGTATGTCTAGAAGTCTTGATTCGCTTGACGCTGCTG	55.9 a.u.
CTAACGAAGGTTTGCTCAGTGGGTGACAAGCCAAGTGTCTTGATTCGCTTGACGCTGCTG	70.6 a.u.
TAACGTACAGGAAGTAACGATCAAACAAAATAAATTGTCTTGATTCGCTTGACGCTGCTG	82 a.u.
GCCAATATCAAGAAAAACGTGTTGGGGGACGAAAATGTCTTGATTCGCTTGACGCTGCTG	184 a.u.
TTCCGTTATTGTTAGCGCGTGAAACTGCCATGTCGGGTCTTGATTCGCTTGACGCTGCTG	84.1 a.u.
TGCGCAACAACTTGTCACTTTACTTTATGTCTAGAAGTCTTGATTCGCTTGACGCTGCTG	83.7 a.u.
GATTTGAATCCAATTCACGTTTCAAGTCATTTTGCCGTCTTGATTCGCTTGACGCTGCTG	122 a.u.
GGAGACACTAATAAGCACGTGAGGGTTTTTGGACAAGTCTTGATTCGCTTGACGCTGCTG	2530 a.u.
ATTTTTTGATATCCACACGTTATTGAGCTCATTGACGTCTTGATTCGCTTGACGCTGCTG	107 a.u.
TGGAAACCTGCCTGTCACATGATGTAAAATCTCCATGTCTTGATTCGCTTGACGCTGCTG	2230 a.u.
AAATTACTAAGTTTTCACGTGCGCTACCCCGTATGAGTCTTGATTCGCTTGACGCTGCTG	1010 a.u.
CTTCTGTAAATTTTTCACGTGTATTGACGCGCCCCGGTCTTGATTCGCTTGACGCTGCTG	775 a.u.
CCACTACAAAACTTCCACGTTAGAAAGGTTAAGTTAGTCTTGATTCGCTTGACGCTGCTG	71.5 a.u.
TCCGAGGTTAGAGTGCCCGTGATGGACCTTTACGAAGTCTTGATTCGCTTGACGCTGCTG	103 a.u.

Block 3 — technique: DHFR PCA, deep sequencing; medium: yeast; together with: (+)-ABA 0.032 µM; baseline: wild-type fitted maximum; reading: higher = stronger binding
Target: ABI1, truncated, D143A, DHFR fusion (Arabidopsis thaliana)
Notes: methotrexate growth selection, single substitutions
Starting sequence: PYL1, truncated, DHFR fusion (Arabidopsis thaliana); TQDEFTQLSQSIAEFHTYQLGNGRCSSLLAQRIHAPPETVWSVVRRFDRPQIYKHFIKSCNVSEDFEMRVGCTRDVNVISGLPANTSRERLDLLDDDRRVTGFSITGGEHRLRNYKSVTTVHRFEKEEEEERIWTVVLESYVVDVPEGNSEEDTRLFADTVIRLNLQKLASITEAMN
Change	relative binding score [%]
N22I	20.3
A35P	0.105
C25S	-2.56
C25A	16
T6F	33.3
D65I	-11.9
Y53S	-0.69
D96P	-2.11
V40T	6.51

Block 4 — technique: RNA Bind-n-Seq; form: RNA; medium: in vitro; tested at: 365 nM; baseline: no-protein control; reading: higher = stronger binding
Target: RNA binding protein fox-1 homolog 2, RRM domain, GST-SBP tag (RBFOX2, Homo sapiens, UniProt O43251-10, residues 100-194)
Notes: natural RNA segment, single round, ends assumed
Target sequence (chain): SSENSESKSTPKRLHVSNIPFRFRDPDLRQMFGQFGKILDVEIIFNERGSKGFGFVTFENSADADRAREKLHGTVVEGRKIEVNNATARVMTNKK
Sequence	RBNS enrichment (R)
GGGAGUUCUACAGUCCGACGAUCAUAGGGAUGGAGUGAGGUGACAGUGGGAAGGGACACAACUACAUGGCCUUUCAUGACCCUGGCUUACUGUGUAAAUGCUGUGCCCUUGGGUACUGGAUAGGAACACUGAGUGGAAUUCUCGGGUGCCAA	0.54
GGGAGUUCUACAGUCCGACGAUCUCCUAGAACCACUGAGUUUCUAGUUUAAUAGUUUGCUAUGCAAAUGACCACCUAAAACAAUACUUUAUAUUGUUAUUUUUAGAAAGACUCAAAACACCUGUAUUUAAACCUGGAAUUCUCGGGUGCCAA	0.409
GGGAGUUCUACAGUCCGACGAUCCUUCGGCCAGUCUUAAACGGGUGUCAGCAAGAAGAAAAAUUAACAAAAGACAGAAGGCCUGACUUUGGGGGGUUAGGGCAAGGGGUUCCUCUGGAUUGCAGACCACAUCGUGGAAUUCUCGGGUGCCAA	1.23
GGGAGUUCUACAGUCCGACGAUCGCCCCAGGGUGGCUGCCUCGGCCCUCCCAGCUCUUACACUCAGCUCCAGUGGCUUCUCCUUUCUGUCAAGACUUAGCCCCGCUGAGAUGCCCUUCUGCUCCAGCUUGCUGUGGAAUUCUCGGGUGCCAA	0.863
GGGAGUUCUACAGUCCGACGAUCACCAUGAGAAAAUAGCUUGGUCUGACCACAAUCUCCUGCUCAUGACUCUCUGAGGCUUCUUGUUAAAAUGGUUGCCUUUGUUUCUCAGUGAUAGCGAUACAGCUCAGGAAUGGAAUUCUCGGGUGCCAA	0.378
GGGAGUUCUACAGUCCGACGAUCUGUCUGCUACUUUGACCUCAUAAAGAAAUCUGCAACACAGAUGAAACCAGUCUGUGUGGCCAAGCUGAUGGGAUUUGAAAAGAGUGGAUAAUUUUUAGCCUUUCCAAAAUUGGAAUUCUCGGGUGCCAA	0.351
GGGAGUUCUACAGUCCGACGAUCAGAUCUGAUGCAGUCAUCUGUGUCCCCCAACCAAAGCCCAUUUGGGUCUGAGGGUUCCAGCGUAAAUGCCUGCCCUGCAGCGCCUGGCAACUGGCAAGCAUCGGGUCUGAUGGAAUUCUCGGGUGCCAA	0.269
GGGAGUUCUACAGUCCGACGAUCCUUCAGUCCUCGUCCUCUCUUUGUGGCUGGCUCCCAGCCUUCUCUUUCCUCUUGAGGAUACUUAGGGUAAACUGGAUCCUUCCUGCUCAAGGAUCCUCAUUUGUAUACCUUGGAAUUCUCGGGUGCCAA	0.452

Some of these lines once more (block 2):
Sequence	fluorescence intensity
TTCCGTTATTGTTAGCGCGTGAAACTGCCATGTCGGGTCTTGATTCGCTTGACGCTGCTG	84.1 a.u.
GGAGACACTAATAAGCACGTGAGGGTTTTTGGACAAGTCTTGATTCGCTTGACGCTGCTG	2530 a.u.
CCTTCCGCCAAGGAGCACATGCGGCCCACTAAAACTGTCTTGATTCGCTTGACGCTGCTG	84.9 a.u.
